# Experimental data collected from several papers.
# Lines come from different studies, so protocols differ. ± gives the spread as reported.
# PLEKHA4 PH domain: Pleckstrin homology domain-containing family A member 4, PH domain (PLEKHA4, Homo sapiens, UniProt Q9H4M7)
# Chain of UniProt Q9H4M7 (whole entry, looked up): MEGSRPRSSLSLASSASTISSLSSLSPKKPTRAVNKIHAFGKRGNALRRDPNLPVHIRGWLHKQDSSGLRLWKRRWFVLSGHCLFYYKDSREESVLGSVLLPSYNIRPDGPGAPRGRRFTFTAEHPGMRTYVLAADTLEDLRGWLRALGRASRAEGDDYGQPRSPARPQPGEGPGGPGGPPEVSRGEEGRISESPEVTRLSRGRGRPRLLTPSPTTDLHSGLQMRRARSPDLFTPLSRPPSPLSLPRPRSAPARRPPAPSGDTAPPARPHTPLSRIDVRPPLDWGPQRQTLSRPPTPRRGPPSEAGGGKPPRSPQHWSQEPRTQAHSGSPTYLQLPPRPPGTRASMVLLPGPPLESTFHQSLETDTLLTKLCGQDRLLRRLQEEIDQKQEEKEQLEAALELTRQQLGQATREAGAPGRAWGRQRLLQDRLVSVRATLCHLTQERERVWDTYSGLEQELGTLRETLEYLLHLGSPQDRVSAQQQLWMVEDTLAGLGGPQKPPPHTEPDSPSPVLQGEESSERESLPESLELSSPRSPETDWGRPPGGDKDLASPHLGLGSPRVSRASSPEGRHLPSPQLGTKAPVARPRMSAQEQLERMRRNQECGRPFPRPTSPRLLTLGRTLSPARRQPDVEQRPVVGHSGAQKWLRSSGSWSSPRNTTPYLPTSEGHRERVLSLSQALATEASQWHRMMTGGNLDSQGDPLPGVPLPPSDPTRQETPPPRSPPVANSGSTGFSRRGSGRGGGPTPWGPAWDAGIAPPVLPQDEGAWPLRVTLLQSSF
# Isochorismatase domain-containing protein 1: Isochorismatase domain-containing protein 1 (Homo sapiens, UniProt Q96CN7)
# Chain of UniProt Q96CN7 (whole entry, looked up): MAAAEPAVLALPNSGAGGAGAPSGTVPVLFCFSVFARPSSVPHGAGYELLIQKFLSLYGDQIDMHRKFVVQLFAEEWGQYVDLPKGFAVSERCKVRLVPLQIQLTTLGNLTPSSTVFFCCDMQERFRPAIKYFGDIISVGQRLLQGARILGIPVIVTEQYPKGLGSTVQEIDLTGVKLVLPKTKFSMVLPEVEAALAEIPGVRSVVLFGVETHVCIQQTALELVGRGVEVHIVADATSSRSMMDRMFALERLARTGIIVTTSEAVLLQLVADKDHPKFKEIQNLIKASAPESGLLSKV
# Chain of UniProt O00154 (whole entry, looked up): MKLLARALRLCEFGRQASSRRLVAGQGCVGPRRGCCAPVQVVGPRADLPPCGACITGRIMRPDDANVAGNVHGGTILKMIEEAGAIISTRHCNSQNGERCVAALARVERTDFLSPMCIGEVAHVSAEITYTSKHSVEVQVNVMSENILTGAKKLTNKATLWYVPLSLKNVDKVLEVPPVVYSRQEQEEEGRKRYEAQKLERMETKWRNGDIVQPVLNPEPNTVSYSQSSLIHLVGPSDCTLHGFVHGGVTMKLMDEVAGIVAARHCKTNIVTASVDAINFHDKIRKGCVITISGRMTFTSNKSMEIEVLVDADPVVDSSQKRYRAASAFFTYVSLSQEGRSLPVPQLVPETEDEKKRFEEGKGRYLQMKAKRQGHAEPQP
# Chain of UniProt P34995 (whole entry, unmodified, looked up): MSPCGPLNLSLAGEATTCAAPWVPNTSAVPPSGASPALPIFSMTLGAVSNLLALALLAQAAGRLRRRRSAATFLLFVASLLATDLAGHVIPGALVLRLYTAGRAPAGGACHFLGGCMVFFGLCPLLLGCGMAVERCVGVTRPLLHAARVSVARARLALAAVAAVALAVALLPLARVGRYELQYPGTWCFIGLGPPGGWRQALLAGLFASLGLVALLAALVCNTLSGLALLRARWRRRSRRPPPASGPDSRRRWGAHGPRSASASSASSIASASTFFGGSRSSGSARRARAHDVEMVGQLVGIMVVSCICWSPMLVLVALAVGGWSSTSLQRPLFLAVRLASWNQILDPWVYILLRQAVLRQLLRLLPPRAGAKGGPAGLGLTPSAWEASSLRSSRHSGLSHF
# Chain of UniProt Q9UKS7 (whole entry, looked up): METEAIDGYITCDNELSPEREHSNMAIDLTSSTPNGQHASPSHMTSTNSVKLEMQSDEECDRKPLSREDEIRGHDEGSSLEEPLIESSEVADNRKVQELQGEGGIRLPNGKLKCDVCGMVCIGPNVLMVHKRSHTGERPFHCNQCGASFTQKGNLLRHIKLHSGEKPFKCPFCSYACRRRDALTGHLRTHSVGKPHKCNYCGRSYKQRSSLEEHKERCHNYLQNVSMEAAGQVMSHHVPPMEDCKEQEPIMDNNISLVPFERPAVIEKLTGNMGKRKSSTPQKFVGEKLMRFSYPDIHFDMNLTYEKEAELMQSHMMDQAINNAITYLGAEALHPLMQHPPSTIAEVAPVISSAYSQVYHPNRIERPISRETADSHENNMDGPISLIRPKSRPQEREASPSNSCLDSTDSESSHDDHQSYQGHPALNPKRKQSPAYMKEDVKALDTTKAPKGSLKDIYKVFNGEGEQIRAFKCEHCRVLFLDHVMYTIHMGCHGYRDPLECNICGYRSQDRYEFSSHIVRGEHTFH
# Chain of UniProt Q15391 (whole entry, unmodified, looked up): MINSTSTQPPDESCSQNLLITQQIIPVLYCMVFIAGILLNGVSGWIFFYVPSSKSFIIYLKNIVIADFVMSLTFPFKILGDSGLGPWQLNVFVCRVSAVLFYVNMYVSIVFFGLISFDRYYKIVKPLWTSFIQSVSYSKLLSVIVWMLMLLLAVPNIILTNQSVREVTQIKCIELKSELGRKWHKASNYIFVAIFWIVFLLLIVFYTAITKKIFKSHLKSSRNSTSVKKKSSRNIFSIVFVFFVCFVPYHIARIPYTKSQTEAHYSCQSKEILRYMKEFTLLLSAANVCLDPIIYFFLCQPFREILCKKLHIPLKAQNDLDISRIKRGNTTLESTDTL
# Chain of UniProt Q96SW2 (whole entry, looked up): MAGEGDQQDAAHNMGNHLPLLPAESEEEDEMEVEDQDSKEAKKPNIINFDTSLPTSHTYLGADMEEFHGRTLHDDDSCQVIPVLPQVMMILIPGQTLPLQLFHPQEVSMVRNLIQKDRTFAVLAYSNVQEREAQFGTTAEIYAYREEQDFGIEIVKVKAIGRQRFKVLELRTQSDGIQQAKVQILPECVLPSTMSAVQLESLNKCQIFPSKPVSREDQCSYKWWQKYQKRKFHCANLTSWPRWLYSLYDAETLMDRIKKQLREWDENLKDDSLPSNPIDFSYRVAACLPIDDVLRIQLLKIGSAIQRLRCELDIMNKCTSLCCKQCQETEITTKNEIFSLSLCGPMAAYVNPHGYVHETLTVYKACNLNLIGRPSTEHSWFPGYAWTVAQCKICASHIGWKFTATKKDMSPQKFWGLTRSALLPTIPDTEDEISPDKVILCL
# Chain of UniProt P51451 (whole entry, looked up): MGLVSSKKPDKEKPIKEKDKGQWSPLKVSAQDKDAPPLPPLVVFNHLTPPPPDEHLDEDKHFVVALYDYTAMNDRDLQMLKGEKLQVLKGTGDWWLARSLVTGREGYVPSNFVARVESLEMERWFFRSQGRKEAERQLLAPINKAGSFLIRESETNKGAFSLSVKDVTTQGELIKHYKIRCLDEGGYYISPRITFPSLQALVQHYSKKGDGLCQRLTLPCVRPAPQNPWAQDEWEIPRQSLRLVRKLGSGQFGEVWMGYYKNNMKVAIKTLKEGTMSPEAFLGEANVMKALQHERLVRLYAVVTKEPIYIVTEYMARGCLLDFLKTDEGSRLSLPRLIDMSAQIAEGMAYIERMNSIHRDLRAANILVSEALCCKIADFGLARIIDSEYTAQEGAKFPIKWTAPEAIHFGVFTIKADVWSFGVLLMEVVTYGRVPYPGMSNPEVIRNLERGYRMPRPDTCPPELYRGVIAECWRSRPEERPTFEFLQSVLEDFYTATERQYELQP
SMILES,target,assay,system,conditions,how to read,measurement,value
COc1cc2c(c(OC)c1OC)-c1c(cc(OC)c(OC)c1OC)C[C@H](C)[C@H](C)C2,"CYP3A, rat","poziotinib metabolism to M1, inhibitor",rat liver microsomes,together with: poziotinib,,αKi,57 µM
O=C(NCCCNc1nc(Nc2cccc(NC(=O)N3CCCC3)c2)ncc1Br)C1CCC1,16-kinase panel,radiometric,,"1 µM, ATP at Km",below 10% of control,number of kinases inhibited,16
CCOc1ccccc1C(=O)CC(SCc1ccc(Cl)cc1)C(=O)O (stereo not shown),PLEKHA4 PH domain,"PLEKHA4 PI(4,5)P2 binding, fluorescence polarization",,"together with: BODIPY-PI(4,5)P2 tracer",,Ki,83 ± 14 µM
Cc1nn(CC(F)(F)F)cc1Nc1nccc(NCCCNC(=O)C2CCC2)n1,16-kinase panel,radiometric,,"1 µM, ATP at Km",below 10% of control,number of kinases inhibited,0
CC(=O)Nc1ccc(C(=O)Nc2ccccc2N)cc1,Isochorismatase domain-containing protein 1,"inhibitor, competition pulldown",SW620 and MV4-11 lysate,1 h,,Kd,> 30.2 µM
O=c1ccn([C@@H]2O[C@H](COP(=O)(O)OP(=O)(O)O[C@H]3O[C@H](CO)[C@@H](O)[C@H](O)[C@H]3O)[C@@H](O)[C@H]2O)c(=S)[nH]1,"P2Y purinoceptor 14 (P2RY14, Homo sapiens, UniProt Q15391, R274A)",,,,,Ki,9.68 µM
O=C(NO)c1cnc(NC2(c3ccccc3)CC2)nc1,Isochorismatase domain-containing protein 1,"inhibitor, competition pulldown",SW620 and MV4-11 lysate,1 h,,Kd,> 30.2 µM
Cc1cncc(C)n1,"uncharacterized protein (Canis lupus familiaris, UniProt A0A8I3P1R6)","cAMP level, agonist, cAMP luminescence",HEK293 cells,,,EC50,> 1500 µM
COc1cc2c(c(OC)c1OC)-c1c(cc3c(c1OC)OCO3)CC(C)C(C)C2 (stereo not shown),"CYP3A, rat","poziotinib metabolism to M2, inhibitor",rat liver microsomes,together with: poziotinib,,αKi,18.1 µM
COc1ccccc1C(=O)CC(SCc1ccc(Cl)cc1)C(=O)O (stereo not shown),PLEKHA4 PH domain,"PLEKHA4 PI(4,5)P2 binding, fluorescence polarization",,"together with: BODIPY-PI(4,5)P2 tracer",,Ki,300 ± 160 µM
Cc1nn(CC(F)(F)F)cc1Nc1ncc(Br)c(NCCCNC(=O)C2CCC2)n1,16-kinase panel,radiometric,,"1 µM, ATP at Km",below 10% of control,number of kinases inhibited,7
CC[C@H](C)[C@H](NC(=O)[C@H](CC(C)C)NC(=O)[C@H](Cc1ccc(OP(=O)(O)O)cc1)NC(=O)[C@H](CCC(=O)O)NC(=O)[C@H](CC(=O)O)NC(=O)[C@H](C)NC(=O)[C@H](CC(=O)O)NC(=O)[C@@H](NC(=O)[C@@H](NC(=O)[C@H](CC(=O)O)NC(=O)[C@H](CC(=O)O)NC(=O)[C@H](CCSC)NC(=O)c1ccc2c(c1)C(=O)OC21c2ccc(N(C)C)cc2Oc2cc(N(C)C)ccc21)C(C)C)C(C)C)C(=O)N1CCC[C@H]1C(=O)N[C@@H](CCC(N)=O)C(=O)N[C@@H](CCC(N)=O)C(=O)NCC(=O)N[C@@H](Cc1ccccc1)C(=O)N[C@@H](CC(=O)O)C(=O)O,"Tyrosine-protein kinase Blk, SH2 domain (BLK, Homo sapiens, UniProt P51451)",binding,,,,Kd,0.658 µM
CN1CCc2cc(Nc3ncc(C4CC4)c(NCCCNC(=O)C4CCC4)n3)ccc2C1,16-kinase panel,radiometric,,"1 µM, ATP at Km",below 10% of control,number of kinases inhibited,16
O=C1CCC(N2Cc3cc(C4CCN(Cc5ccccc5)CC4)ccc3C2=O)C(=O)N1 (stereo not shown),"CRBN/Zinc finger protein Helios (Homo sapiens, UniProt Q96SW2+Q9UKS7)","protein degradation, degrader, immunoblot",Jurkat,4 h,,DC50,0.043 µM
CCOc1ccc(C(=O)CC(SCc2ccc(Cl)cc2)C(=O)O)cc1 (stereo not shown),PLEKHA4 PH domain,"PLEKHA4 PI(4,5)P2 binding, fluorescence polarization",,"together with: BODIPY-PI(4,5)P2 tracer",,Ki,45.4 ± 3.5 µM
O=C(NCCCNc1nc(Nc2cccc(NC(=O)N3CCCC3)c2)ncc1I)c1cccs1,16-kinase panel,radiometric,,"1 µM, ATP at Km",below 10% of control,number of kinases inhibited,14
C/C=C1\NC(=O)[C@H]2CSSCC/C=C/[C@H](CC(=O)N[C@H](C(C)C)C(=O)N2)OC(=O)[C@H](C(C)C)NC1=O,Isochorismatase domain-containing protein 1,"inhibitor, competition pulldown",SW620 and MV4-11 lysate,1 h,,Kd,> 30.2 µM
CCOC(=O)c1cc(-c2ccc(OCC)cc2)oc1-c1ccc(Cl)cc1,PLEKHA4 PH domain,"PLEKHA4 PI(4,5)P2 binding, fluorescence polarization",,"together with: BODIPY-PI(4,5)P2 tracer",,Ki,> 100 µM
NS(=O)(=O)c1ccc(CNc2nc(Nc3cccc(NC(=O)N4CCCC4)c3)ncc2C2CC2)cc1,16-kinase panel,radiometric,,"1 µM, ATP at Km",below 10% of control,number of kinases inhibited,1
COc1ccc(-c2nc(N3CCOCC3)c3sc(CN(C)c4ncc(C(=O)NO)cn4)cc3n2)cn1,Isochorismatase domain-containing protein 1,"inhibitor, competition pulldown",SW620 and MV4-11 lysate,1 h,,Kd,> 30.2 µM
CCOc1ccc(C(=O)CC(SCc2ccccc2)C(=O)O)cc1 (stereo not shown),PLEKHA4 PH domain,"PLEKHA4 PI(4,5)P2 binding, fluorescence polarization",,"together with: BODIPY-PI(4,5)P2 tracer",,Ki,219 ± 17 µM
O=C(NCCCNc1ccnc(Nc2cccc(NC(=O)N3CCCC3)c2)n1)C1CCC1,16-kinase panel,radiometric,,"1 µM, ATP at Km",below 10% of control,number of kinases inhibited,0
CCCCC[C@H](O)/C=C/[C@H]1[C@H](O)CC(=O)[C@@H]1C/C=C\CCCC(=O)O,"PTGER1 (Homo sapiens, UniProt P34995, E294A)","IP1 accumulation, agonist",AD293,EP1 E294A mutant,,EC50,0.00317 µM
CC(C)(COP(=O)(O)OP(=O)(O)OC[C@H]1O[C@@H](n2cnc3c(N)ncnc32)[C@H](O)[C@@H]1OP(=O)(O)O)[C@@H](O)C(=O)NCCC(=O)NCCS,"Cytosolic acyl coenzyme A thioester hydrolase (Homo sapiens, UniProt O00154)","competitor, competition MS pulldown",SW-620 cell lysate,together with: photo-immobilized beads,,Kd,0.631 µM
Cc1nn(CC(F)(F)F)cc1Nc1ncc(C2CC2)c(NCCCNC(=O)C2CCC2)n1,16-kinase panel,radiometric,,"1 µM, ATP at Km",below 10% of control,number of kinases inhibited,1

# For quick reference, copied from above:
SMILES,target,assay,system,conditions,how to read,measurement,value
O=C(NCCCNc1ccnc(Nc2cccc(NC(=O)N3CCCC3)c2)n1)C1CCC1,16-kinase panel,radiometric,,"1 µM, ATP at Km",below 10% of control,number of kinases inhibited,0
CCOc1ccccc1C(=O)CC(SCc1ccc(Cl)cc1)C(=O)O (stereo not shown),PLEKHA4 PH domain,"PLEKHA4 PI(4,5)P2 binding, fluorescence polarization",,"together with: BODIPY-PI(4,5)P2 tracer",,Ki,83 ± 14 µM
COc1ccccc1C(=O)CC(SCc1ccc(Cl)cc1)C(=O)O (stereo not shown),PLEKHA4 PH domain,"PLEKHA4 PI(4,5)P2 binding, fluorescence polarization",,"together with: BODIPY-PI(4,5)P2 tracer",,Ki,300 ± 160 µM
Cc1nn(CC(F)(F)F)cc1Nc1ncc(Br)c(NCCCNC(=O)C2CCC2)n1,16-kinase panel,radiometric,,"1 µM, ATP at Km",below 10% of control,number of kinases inhibited,7
